Published values from different studies.
A part holds a random share of what one study measured.

Study 1 — technique: aptamer microarray, sandwich; form: DNA with 2'F-ANA; sample: in vitro; tested at: 200 nM; with: Cy3 exosite-II aptamer, 400 nM; reading: higher = stronger binding; oligonucleotide: GGTTGGTGTGGTTGG
Target: Prothrombin, mature alpha-thrombin (F2, Homo sapiens, UniProt P00734)
Notes: whole 15-mer aptamer, many near background
Modification | mean fluorescence intensity [a.u.]
2'F-ANA at 3 6 8 10 11 13 14 | 339
2'F-ANA at 1 3 8 10 11 12 13 14 15 | 91.3
2'F-ANA at 1 2 3 4 5 7 10 11 14 15 | 48.9
2'F-ANA at 1 4 5 12 13 15 | 75.1
2'F-ANA at 2 3 5 6 7 8 9 12 | 187
2'F-ANA at 2 6 10 11 13 15 | 103
2'F-ANA at 1 4 6 7 8 11 13 | 90.8
2'F-ANA at 2 4 5 10 11 13 15 | 44.8
2'F-ANA at 2 4 5 10 12 14 | 44.9
2'F-ANA at 1 2 5 8 9 10 12 14 | 47.3
2'F-ANA at 1 3 4 6 8 10 13 14 15 | 88.4
2'F-ANA at 3 4 5 7 12 13 14 | 54.5
2'F-ANA at 1 2 3 4 5 6 8 9 12 14 15 | 75.6
2'F-ANA at 6 10 11 13 | 177
2'F-ANA at 1 2 5 8 10 12 13 15 | 47.3
2'F-ANA at 4 5 8 9 11 13 15 | 50.7
2'F-ANA at 2 4 6 7 8 9 10 12 14 | 65.5
2'F-ANA at 1 3 5 6 7 8 14 | 57.1
2'F-ANA at 2 3 5 6 8 9 10 11 12 13 | 54.9

Study 2 — technique: RNA Bind-n-Seq; form: RNA; sample: in vitro; tested at: 365 nM; relative to: no-protein control; reading: higher = stronger binding
Target: RNA binding protein fox-1 homolog 2, RRM domain, GST-SBP tag (RBFOX2, Homo sapiens, UniProt O43251-10, residues 100-194)
Notes: natural RNA segment, single round, ends assumed
Constant ends, left off below: GGGAGUUCUACAGUCCGACGAUC … UGGAAUUCUCGGGUGCCAA
Residues (chain): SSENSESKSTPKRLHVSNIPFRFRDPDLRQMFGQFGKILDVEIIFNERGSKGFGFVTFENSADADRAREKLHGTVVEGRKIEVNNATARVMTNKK
Oligonucleotide | RBNS enrichment (R)
GCUUGUUUGGGGGUUUGUUCCCAUCCAUGAGUAGAGUUGACAAGAAGAAUUUAAACGGGAGUCUGAAGACCUGCUGUUACUAGAAAGUUAAGAAAGGCGCUUUACAGAUA | 0.563
CUGGUACUGGGUACAUGGGUAAGGGUGGUACAGUGAAACCCACUCUCUCCCCUUUUUAUAAUGUAGAAGAAAGUAAUUGUCCUGUCUCAUUUGGGAAUUGAAUGUGGCCU | 0.625
UCCACAGUGUAUUAGUGACAUUCUUUCAUUGACAGCUGACAUAAUUCAUUGAGUGAAAUAUUUUAAGCCAAAAAAAAAUUCCCUUUUUAAAAAAGGGGGUUUAAAUACUG | 0.525
UACUAUUCUUAAAUGAAGUCCUCCCCAAACGUGAAUGGAAGCAGAGUUCUUUGCCAGGCUGCCUGCCGGAAAAGGUGUAGACAGAUGCUACUAAGACACCAAAUAGUGUC | 0.327
AAUAUUUGAUAAUGGUUGCACUUAUCUUCAGUGCAGGUUAGAAGAGUCUUCUCAACCAAGCUUAACUCGAGUUGUCUUCUCAGCCCUCAAAAGGCUCUUGUACAAAAUGU | 0.32
GAUGGAAGCCUCCCAGGCGCGCGAGGCUUCCCGGGCGCUCUGAGGCUUCUUUCUCCUCGCCCGCUCCCCUGGGCUCAGCUCGGACGCUGCAGUUAUUGACCUCCCGGUCC | 0.39
UGCAGAAGAGACAUGCAGCAGUAGCGCUGGCGCCAUCUGCAGGAGCUGGCGGGCUGGCCUUCUGGACCCUGGCUUCUCCCCACUGUAACGCCUGUUACACACAAACUGUU | 0.444
CAGUCAGAAAUGUUACUGGGAGGAGGAAAGGAAAAUCACUUUUUUUCCUCCAUGUGGAAAUGAGGAGAGAGGAAAGUGGAUUGCAAACCAAAAUGUGAGUCAGUGUGAUG | 0.625
ACCAGGCCUUCCCUCUAGGGCUUCUGGCUACUUGCUGCAGUUCUUUGUCAGCGAGGCUCCCUGCCACCUAUACUACCAGGUGCUUUGUAGCAGAGAGAGCCCAUCUGCAG | 0.372
UAGAUCUGAAUUUUCUAUGUUUAGCUAUUUAAUGUUAAUUUCCCACAAUCCAUGGGGGCGCUUAGUGGAAGGAUUAAUAUUAUGUUUAAGGGAAUAGUUUAUAUGGACCU | 0.708
GUAGUUUGCAGUCUGAGAUAUGGGAGAGCUUUUAGGCUACACAGCAACCCAAGGGACCUCUCACCUUUUGCUGAGCUUCAAUCAGGAAGCUAUUUGCCUGGCUCCAGCAG | 0.39
UUUGGGGAGUGUGUUUUGUCUGUUCUUCAAUGAAGGAUCAAUCCAGUGUUCUUCAUCAAUGUUAGUUAAUAUCCCAUUGCUUGUGUGGCGCCUUGAGUUGGUGGUAGACU | 6.13

Study 3 — technique: RNA Bind-n-Seq; form: RNA; sample: in vitro; tested at: not given; relative to: input RNA pool; reading: higher = stronger binding
Target: RING finger protein unkempt homolog, zinc fingers 1-6, GST-SBP tag (UNK, Homo sapiens, UniProt Q9C0B0, residues 30-357)
Chain of UniProt Q9C0B0 (30-357, looked up): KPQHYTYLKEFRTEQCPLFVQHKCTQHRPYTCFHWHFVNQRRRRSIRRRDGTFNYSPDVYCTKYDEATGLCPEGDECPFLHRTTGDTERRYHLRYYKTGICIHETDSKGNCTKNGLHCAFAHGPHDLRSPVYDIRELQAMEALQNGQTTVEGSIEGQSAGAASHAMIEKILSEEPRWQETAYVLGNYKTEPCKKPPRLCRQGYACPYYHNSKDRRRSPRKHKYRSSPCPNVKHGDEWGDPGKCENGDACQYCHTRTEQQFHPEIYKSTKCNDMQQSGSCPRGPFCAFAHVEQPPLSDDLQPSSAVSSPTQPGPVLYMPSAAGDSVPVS
Notes: RNA with constant flanks, human and mouse sites, ends assumed
Constant ends, left off below: GGGAGUUCUACAGUCCGACGAUC … CAACAGAGGAUUGAGCAUCA
Oligonucleotide | bound/input enrichment [ratio]
CGGAAGUGAUCCCCUGCGUGGCUGGGCUGCUCGGGUUAGAUCGUCAGGAAAAGCCUAAAGAUUAGACUGUAAGAAAAGAAAAUAGAAGCCAUGUUUCGAAGACCUGUAUUACAGGUACUU | 1.89
UCCAACGAACUUUUGGAAGAGGCCUUUAGCCAGUUUGGUCCUAUUGAAAGGGCUGUUGUAAUUGUGGAUGAUCGCGGAAGAUCUACAGGGAAAGGCAUUGUUGAGUUUGCUUCCAAGCCA | 0.332
GACUCUAAGCUGACAAGACUCUUGCAGGAUUCCCUUGGGGGUAACAGCCAAACCAUCAUGAUAGCAUGCGUCAGCCCUUCAGACAGGGAUUUCAUGGAGACGUUAAACACUCUGAAGUAC | 0.242
CAUACACAACGAUAGAUGGAUAAACAAAACAUAAAUACUUAAUCAUAGACAGGCUGAGGGUAGGGGGAAGCUGGCGCUUACCAUUUUGUAAUCACUACAAUAAUGUCUGAGGGAAAUAUC | 1.08
UUUGACUCUGAUAUCAACAAUCGGCUGGUUUACCAUGACUUCUUCAGAGACCCUCUCAACUGGUCAAAAACUGAGGAGGCCUUUCCUGGGGGGCCGCUGGGAGCCUUGAGAGCCAUGUGC | 0.0989
CCUGCCAGGCUGUCGGGCGUCAUGGUGCCGGCGCCCAUCCAAGACCUGGAGGCCCUGCGCGCGCUCACGGCGCUCUUCAAAGAGCAGCGGAACCGAGAAACAGCACCCAGGACUAUCUUC | 0.0852
CAGGGAGAUCAGAUCUUAUCUGUGAAUGGGGAGGACAUGAGAAAUGCCUCACAGGAGACAGUGGCCACCAUCCUCAAGUGUGCACAGGGACUUGUGCAGCUAGAGAUUGGAAGACUCCGA | 0.134
AUGGAGCCACCUGCAGCAUUGAGGAGGAGAAGGAAUCUGAAGCCAGCACCCCAACUGCUACAGAGGUGGAGGCCCUUGGGGGAGAGCUGAGGGCCCUGUGUCAGGGGCACAGCGGGCCCG | 0.207
AAAGUAUUGGGCACUAGGAAAUUGAUGCAUGUUGCUUAUGAAGAAUUUGAAAAAGUUAUGGUAGCAUGCUUUGAAGUUUUUCAGACUUGGGAUGAUGAGUAUGAGAAACUUCAGGUAUUG | 1.21
UCUUCCCUGGAGUACAGCAUUAGAGUCUACUGCCUGGAUGACACACAGGAUGCCCUGAAGGAAGUUCUACAACUGGAGAGGCAAAUGGGAGGACAGCUCCUAGAAGAACCCAAGGCUCUU | 0.0775
GUCACCCAGCUGUUGCAGUCUUCGCAUAAGGAAUCCAGCUUCGAUGUCAUUCUGUCGGGUGUAGUCCCAGGAAGCACCUCUCUGCACAGUGCUGAGGUUCUGGCUGAGAUGGCCCGGAUC | 0.103

Study 4 — technique: protein binding microarray; form: double-stranded DNA, one strand shown; sample: in vitro; tested at: not given; relative to: not given; reading: higher = stronger binding
Target: Histone acetyltransferase KAT6A, both winged helices, GST fusion (KAT6A, Homo sapiens, UniProt Q92794, residues 1-181)
Notes: 8-mer, flanks averaged, mean of 2 arrays, mostly near background
Residues (chain): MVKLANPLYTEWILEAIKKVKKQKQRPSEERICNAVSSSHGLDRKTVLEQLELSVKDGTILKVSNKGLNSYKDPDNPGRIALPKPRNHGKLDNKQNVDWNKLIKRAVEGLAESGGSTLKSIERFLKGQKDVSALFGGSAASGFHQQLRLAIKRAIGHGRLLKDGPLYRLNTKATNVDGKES
Oligonucleotide | E-score
GTGGCCCA | -0.121
CAGTTACC | -0.0921
AGCAGCTA | -0.159
GGGGGGCA | -0.221
GACAGGCA | -0.142
TCTCTTCA | -0.0581
CGAAGTCA | -0.0387
GATCGCGC | 0.31
GGGCAGAA | -0.0939
CACCCGCG | 0.336
GATTTTAA | -0.023
AACCGGTT | 0.136
CGCAAACA | 0.0157
ACGTAGGC | 0.0101
GGCGACTA | -0.0325
ACGCGGAG | 0.206
AAGCGTAT | 0.156
CCTTGCTA | -0.186
ATTGACCA | -0.255
GTATATAC | 0.0169
ATGGTCGA | -0.0645
ATCCAGAA | -0.0311
AGCTGAGC | -0.0257
CGCGTGCC | 0.237
TACCACAA | -0.177

Repeated from above (study 4):
Oligonucleotide | E-score
GATCGCGC | 0.31
AGCTGAGC | -0.0257
TCTCTTCA | -0.0581
ATGGTCGA | -0.0645
TACCACAA | -0.177
CAGTTACC | -0.0921
GGGCAGAA | -0.0939
CCTTGCTA | -0.186
